Experimental data from different studies.
Parts stem from different laboratories: compare values within a part only. Substitutions count along the parent as printed.

Sample 1 — method: universal PBM; molecule type: double-stranded DNA, one strand shown; sample: in vitro; tested at: 600 nM; reading: higher = stronger binding
Target: Sal-like protein 4, full length isoform A (SALL4, Homo sapiens, UniProt Q9UJQ4, residues 1-1053)
Chain of UniProt Q9UJQ4 (whole entry, looked up): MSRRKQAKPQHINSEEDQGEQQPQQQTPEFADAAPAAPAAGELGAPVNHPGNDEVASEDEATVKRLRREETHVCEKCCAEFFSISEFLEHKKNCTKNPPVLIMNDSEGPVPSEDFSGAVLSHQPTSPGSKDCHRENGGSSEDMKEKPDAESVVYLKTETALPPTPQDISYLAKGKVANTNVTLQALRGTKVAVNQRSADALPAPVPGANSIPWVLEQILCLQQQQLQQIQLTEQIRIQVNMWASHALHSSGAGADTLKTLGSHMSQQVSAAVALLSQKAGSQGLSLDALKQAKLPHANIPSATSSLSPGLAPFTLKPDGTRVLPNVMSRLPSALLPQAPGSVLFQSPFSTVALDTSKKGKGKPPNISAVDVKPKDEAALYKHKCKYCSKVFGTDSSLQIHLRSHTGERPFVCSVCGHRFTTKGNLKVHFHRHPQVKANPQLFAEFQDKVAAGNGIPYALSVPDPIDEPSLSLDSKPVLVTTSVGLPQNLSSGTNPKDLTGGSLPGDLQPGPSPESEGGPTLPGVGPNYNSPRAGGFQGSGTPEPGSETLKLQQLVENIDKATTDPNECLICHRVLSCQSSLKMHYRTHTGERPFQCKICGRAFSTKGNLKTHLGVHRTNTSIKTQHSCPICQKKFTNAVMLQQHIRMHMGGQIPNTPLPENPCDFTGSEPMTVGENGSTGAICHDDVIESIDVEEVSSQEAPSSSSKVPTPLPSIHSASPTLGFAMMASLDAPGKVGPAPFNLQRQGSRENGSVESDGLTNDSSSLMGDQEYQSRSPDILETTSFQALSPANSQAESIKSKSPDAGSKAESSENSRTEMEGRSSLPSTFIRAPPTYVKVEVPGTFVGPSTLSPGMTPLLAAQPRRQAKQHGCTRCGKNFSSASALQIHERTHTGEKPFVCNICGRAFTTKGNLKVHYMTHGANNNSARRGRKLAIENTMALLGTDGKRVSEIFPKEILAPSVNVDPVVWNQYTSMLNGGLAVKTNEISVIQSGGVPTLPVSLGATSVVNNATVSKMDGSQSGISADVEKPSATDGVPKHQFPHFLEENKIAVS
Notes: 8-mer, flanks averaged, mean of replicates
| Strand | E-score |
| --- | --- |
| ATGGTAAC | 0.15 |
| CCCCTTCC | -0.32 |
| GCGTCGCA | -0.173 |
| CAGAATGG | -0.0225 |
| AATGCTCC | -0.184 |
| ATGGGGAG | -0.0408 |
| AAGTGTGC | 0.0646 |
| ACAAGTCT | 0.201 |
| AATTGGAC | 0.14 |
| TAACGCAA | 0.233 |
| CAGAGCGG | -0.132 |
| ACTGCAAT | 0.0508 |
| AACCTCTC | 0.00042 |
| ATGGGCCG | -0.196 |
| ACCGTTCT | -0.0799 |
| AAATGGCT | 0.0199 |
| GGCAGGGA | -0.0931 |
| AGGTGGTC | -0.149 |
| GAGTTAGA | -0.0365 |
| GAATACGC | 0.0867 |
| AGCTCCCA | -0.267 |
| ATGGGTGG | -0.15 |
| CCGTTCAG | -0.227 |
| ATCTTGAG | 0.0671 |

Sample 2 — method: DNA-protein interaction ELISA; molecule type: double-stranded DNA, one strand shown; sample: in vitro, bacterial lysate; tested at: not given; notes: whole dsDNA probe, crude lysate protein; reference: highest signal in screen; reading: higher = stronger binding
Target: Probable WRKY transcription factor 50, DNA-binding domain (WRKY50, Arabidopsis thaliana, UniProt Q8VWQ5, residues 99-173)
Residues (chain): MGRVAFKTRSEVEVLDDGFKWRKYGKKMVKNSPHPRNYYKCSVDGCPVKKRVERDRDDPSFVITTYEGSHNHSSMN
| Strand | relative absorbance |
| --- | --- |
| AAAAAACCGACCTGCACGTCGCTGCTAAAA | 18.8 % of maximum |
| AAAAAATATCATTGTTACCGTTGCTAAAAA | 38.6 % of maximum |
| AAAAAAAGTAGTTACTGCGAAAGTCTAAAA | 23.8 % of maximum |
| AAAAAATTAGGACCATCCCCACTAGGAAAA | 8.36 % of maximum |
| AAAAAAGTCGTCACGCACGTGAATACAAAA | 30 % of maximum |
| AAAAAAGTCCATAAACTAAATTGGATAAAA | 21.7 % of maximum |
| AAAAAAGGGCCCACTATCGACGTCAAAA | 25.7 % of maximum |
| AAAAAATCAAAACAACGATGCCGTTAAAAA | 21.1 % of maximum |
| AAAAAAAGGGTGCTATTCGTCGACACAAAA | 30.7 % of maximum |
| AAAAAAACTTCTGTCCCTGTTCCCGTAAAA | 39.4 % of maximum |
| AAAAAAACGCTCAAGTCTATCAGTAGAAAA | 36.7 % of maximum |
| AAAAAATGACCAGGCCTCGAGCAAAAA | 31.3 % of maximum |
| AAAAAAGGCGTCTGACTGTAACTCGTAAAA | 45.3 % of maximum |
| AAAAAAGAGTGGTTTATTAATGTATAAAAA | 16 % of maximum |
| AAAAAACCTTACTGTTGATTCTGGTTAAAA | 40.1 % of maximum |
| AAAAAAATGGTGCCGCTGAGCAAATTAAAA | 9.43 % of maximum |
| AAAAAATACTCTTCCTCGTTCTTGGTAAAA | 17.3 % of maximum |
| AAAAAATTCTAACTTAGCCTATGTCCAAAA | 48.6 % of maximum |

Sample 3 — method: aptamer microarray, sandwich; molecule type: DNA with 2'F-ANA; sample: in vitro; tested at: 200 nM; added: Cy3 exosite-II aptamer, 400 nM; reading: higher = stronger binding; strand: GGTTGGTGTGGTTGG
Target: Prothrombin, mature alpha-thrombin (F2, Homo sapiens, UniProt P00734)
Notes: whole 15-mer aptamer, many near background
| Modification | mean fluorescence intensity [a.u.] |
| --- | --- |
| 2'F-ANA at 1 2 3 4 5 6 7 8 9 12 | 139 |
| 2'F-ANA at 1 2 3 4 7 8 9 11 12 | 324 |
| 2'F-ANA at 1 2 3 4 7 9 10 13 14 | 48.7 |
| 2'F-ANA at 1 3 5 6 12 13 15 | 99.5 |
| 2'F-ANA at 3 4 8 11 13 | 551 |
| 2'F-ANA at 1 2 4 6 9 11 12 | 178 |
| 2'F-ANA at 2 4 5 6 8 10 13 15 | 55 |
| 2'F-ANA at 3 6 7 13 14 | 559 |
| 2'F-ANA at 5 7 9 12 13 15 | 105 |
| 2'F-ANA at 1 3 4 5 6 7 8 12 14 15 | 96.8 |
| 2'F-ANA at 3 5 6 7 10 | 56.8 |
| 2'F-ANA at 2 6 7 8 9 10 11 12 14 | 84.3 |
| 2'F-ANA at 2 3 6 7 8 10 13 | 331 |
| 2'F-ANA at 2 3 4 7 12 13 14 15 | 365 |
| 2'F-ANA at 3 4 5 7 8 9 11 13 15 | 65.5 |
| 2'F-ANA at 1 3 4 5 8 11 15 | 61.7 |
| 2'F-ANA at 4 5 7 10 12 | 97.5 |
| 2'F-ANA at 4 7 11 13 15 | 204 |
| 2'F-ANA at 1 2 3 6 12 13 14 15 | 80.3 |
| 2'F-ANA at 1 4 5 6 8 9 13 15 | 51.1 |
| 2'F-ANA at 1 2 3 5 7 8 10 11 13 | 45.6 |
| 2'F-ANA at 1 8 13 | 168 |
| 2'F-ANA at 4 6 8 9 13 14 | 161 |
| 2'F-ANA at 1 3 4 5 6 9 11 13 15 | 89.1 |
| 2'F-ANA at 2 3 6 11 12 14 | 410 |

Sample 4 — method: protein binding microarray; molecule type: double-stranded DNA, one strand shown; sample: in vitro; tested at: not given; reference: not given; reading: higher = stronger binding
Target: Histone acetyltransferase KAT6A, both winged helices, GST fusion (KAT6A, Homo sapiens, UniProt Q92794, residues 1-181)
Notes: 8-mer, flanks averaged, mean of 2 arrays, mostly near background
Target sequence (chain): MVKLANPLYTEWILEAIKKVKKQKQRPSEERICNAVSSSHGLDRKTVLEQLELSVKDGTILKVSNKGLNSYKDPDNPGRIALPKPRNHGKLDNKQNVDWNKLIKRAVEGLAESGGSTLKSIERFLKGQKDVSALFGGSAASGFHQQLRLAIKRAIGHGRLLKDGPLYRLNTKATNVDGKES
| Strand | E-score |
| --- | --- |
| ACATGTCA | 0.0601 |
| ATAAGGCC | 0.121 |
| CGACTACA | -0.0719 |
| TCTTTCAA | -0.198 |
| CGCGTAGA | 0.179 |
| AGCCCGTA | 0.116 |
| AGTTGATC | -0.06 |
| AATGAGGG | -0.292 |
| CCGCCGCG | 0.392 |
| TCGTTTAA | -0.1 |
| ATCTCGGG | -0.0285 |
| GCACTTCC | 0.00673 |
| CACCTTGC | -0.107 |
| ACCGGCTA | 0.121 |
| CAATAGAC | -0.105 |
| CGCTAACA | 0.0879 |
| CCCCACAA | -0.168 |
| AAAACGTT | 0.0887 |
| GAACTGCC | -0.0896 |
| CATGGCTC | 0.0571 |
| GAGCATCA | -0.11 |
| GACCCACA | -0.194 |
| CCCCATGA | -0.273 |
| CATGTTAC | -0.122 |
| CCGAACCC | -0.0342 |

Sample 5 — target: FOS, bZIP domain (human); method: DHFR protein complementation; sample: yeast; reference: wild-type JUN-FOS pair; reading: higher = stronger binding
Notes: single substitutions, most at no-binding floor
Parent: JUN, bZIP domain (human); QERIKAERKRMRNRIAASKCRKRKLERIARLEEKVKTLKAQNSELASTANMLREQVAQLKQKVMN; partner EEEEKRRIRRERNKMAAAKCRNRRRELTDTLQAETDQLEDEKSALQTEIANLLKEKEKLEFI
| Change | binding fitness [natural log] |
| --- | --- |
| I28F | -0.275 |
| A49D | -1.46 |
| N42T | -0.109 |
| Q58S | 0.0442 |
| V56F | -1.15 |
| K39L | -0.714 |
| M51P | -1.37 |
| Q58H | -0.147 |
| A57P | -1.3 |
| K39D | -1.2 |
| N42G | -1.15 |
| T37S | -0.0187 |

Sample 6 — target: CCND3, cyclin fold, Cln2 fusion (human); method: yeast growth competition, sequencing; sample: yeast; notes: weak parent motif; reference: not given; reading: higher = stronger binding
Parent: E2F8 docking peptide (human); FVPQRKLEVSTED; partner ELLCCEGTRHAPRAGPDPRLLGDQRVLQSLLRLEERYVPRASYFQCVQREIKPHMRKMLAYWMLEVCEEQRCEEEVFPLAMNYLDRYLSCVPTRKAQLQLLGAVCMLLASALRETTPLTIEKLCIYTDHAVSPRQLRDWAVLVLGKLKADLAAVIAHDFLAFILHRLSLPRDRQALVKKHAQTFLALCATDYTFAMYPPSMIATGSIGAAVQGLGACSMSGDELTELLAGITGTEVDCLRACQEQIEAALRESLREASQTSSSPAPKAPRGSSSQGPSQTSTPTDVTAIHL
| Change | normalised enrichment score |
| --- | --- |
| FVPQRKLEVSTAD [E12A] | 0.0936 |
| FVPQRKLEVATED [S10A] | 0.13 |
| FVPQKKLEVSTED [R5K] | 0.12 |
| FVPQRKLAVSTED [E8A] | 0.117 |
| FVPQAKLEVSTED [R5A] | 0.0563 |
| FVPARKLEVSTED [Q4A] | -0.0188 |
| FVPQRKAEVSTED [L7A] | 0.117 |
| FVPQKKLEFSTED [R5K V9F] | -0.00477 |

Other studies, line by line
| Substance | target | assay | test system | setting | scale | measurement | result |
| --- | --- | --- | --- | --- | --- | --- | --- |
| PhoQ, residues 284 288 289 292 302 303 ASASEQ | PhoP, residues 12 14 15 18 19 LHATL (Escherichia coli, UniProt P23836) | Sort-seq, refers to: YFP reporter | E. coli | PhoQ-PhoP variant library, added: 10 µM Mg2+ | reference: high Mg2+ state, higher = stronger signaling | fold induction | 17.1 |

For quick reference, copied from above (sample 3):
| Modification | mean fluorescence intensity [a.u.] |
| --- | --- |
| 2'F-ANA at 1 3 5 6 12 13 15 | 99.5 |
| 2'F-ANA at 3 4 8 11 13 | 551 |
| 2'F-ANA at 1 2 4 6 9 11 12 | 178 |
| 2'F-ANA at 2 4 5 6 8 10 13 15 | 55 |
| 2'F-ANA at 3 6 7 13 14 | 559 |
| 2'F-ANA at 5 7 9 12 13 15 | 105 |
| 2'F-ANA at 1 3 4 5 6 7 8 12 14 15 | 96.8 |
| 2'F-ANA at 3 5 6 7 10 | 56.8 |
| 2'F-ANA at 2 6 7 8 9 10 11 12 14 | 84.3 |
| 2'F-ANA at 2 3 6 7 8 10 13 | 331 |
| 2'F-ANA at 2 3 4 7 12 13 14 15 | 365 |
| 2'F-ANA at 3 4 5 7 8 9 11 13 15 | 65.5 |
| 2'F-ANA at 1 3 4 5 8 11 15 | 61.7 |
| 2'F-ANA at 4 5 7 10 12 | 97.5 |
| 2'F-ANA at 4 7 11 13 15 | 204 |
